Measured values gathered from unrelated publications.
Parts stem from different laboratories: compare values within a part only.

Set 1 — technique: protein binding microarray; form: double-stranded DNA, one strand shown; matrix: in vitro; concentration: not given; baseline: not given; reading: higher = stronger binding
Target: Histone acetyltransferase KAT6A, winged helix 2, GST fusion (KAT6A, Homo sapiens, UniProt Q92794, residues 85-181)
Setting: 8-mer, flanks averaged, mean of 2 arrays, mostly near background
Target sequence (chain): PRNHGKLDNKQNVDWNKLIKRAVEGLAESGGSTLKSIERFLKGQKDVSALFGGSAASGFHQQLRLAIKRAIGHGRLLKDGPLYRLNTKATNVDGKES
Sequence | E-score
ACCGCGTC | 0.0591
CTTGGGCC | 0.089
ATACTTGA | -0.151
ACGGCCTC | 0.0798
GGCTCCCC | 0.0177
CCATAGCC | -0.119
CAGTAGAC | -0.0953
CGTATTTA | 0.035
GGAACACA | -0.145
AAGAACCG | 0.0325
ACTGGCGG | -0.031
CGCGGCCC | 0.196
AATGGTCT | -0.14
GTACGTAC | -0.11
AACTTGTC | -0.107
AGCTCACG | -0.077
CAATTGGA | -0.00171
ATCTACTG | -0.0302
ACCGCAGA | -0.0601
ATCATGTC | -0.0686
GGGGATAC | -0.108
ATAGTACG | -0.192
AGCAGCGG | 0.122
CCTTGGTC | 0.0553
CAGGCGAC | 0.116

Set 2 — technique: RNA Bind-n-Seq; form: RNA; matrix: in vitro; concentration: 200 nM; setting: whole 134-nt RNA, ends assumed; together with: 150 mM LiCl; baseline: input library; reading: higher = stronger binding; all molecules: 7-deaza-guanosine replaces G
Target: Fragile X messenger ribonucleoprotein 1, C-terminal low-complexity region (Fmr1, Mus musculus, UniProt P35922)
Shared flanks, not repeated: GGGAGUUCUACAGUCCGACGAUC … UGGAAUUCUCGGGUGUCAAGG
Sequence | log2 enrichment
UGGCCCUGGUGGCAUGCGAGGAGGAAGAGGUGGCCUCAUGGAUCGUGGUGGUCCCGGUGGAAUGUUCAGAGGUGGCCGUGGUGGAGACAG | -0.38
AGUCCUGUGCUACACAUCGUAUGUACCGAAUCGGGGAGGGGUUUGGGGUUUUUGGGGAAAGUAUUAUGUUACGCCGUUCGGAUCUGCACU | -0.753
AGUCCUGUGCUACACAUCGUAUGUACCGAAUCGGGAAAAAGGGUUUUUGGGAAAGGGAAAGUAUUAUGUUACGCCGUUCGGAUCUGCACU | -2.3
UCCUGUGCUACACAUCGUAUGUACCGAAUCGGGGAAAGGGGUUUUUGGGGAAAAAGGGGAAAGUAUUAUGUUACGCCGUUCGGAUCUGCA | -0.804
AGUCCUGUGCUACACAUCGUAUGUACCGAAUCAAACCCAAACCCAAACCCCCCCAAAAAAGUAUUAUGUUACGCCGUUCGGAUCUGCACU | 0.251
UCCUGUGCUACACAUCGUAUGUACCGAAUCGGGGAAAAAGGGGAAAAAGGAAAAAGGGGAAAGUAUUAUGUUACGCCGUUCGGAUCUGCA | -0.842
UAACUUUAGAGGAGGAUCUGAUAGAUAUGGCAGUGGACGUGGAUUUGGGGAUGGCUAUAAUGGGUAUGGAGGAGGACCUGGAGGUGGCAA | 0.45
CAAGUCCUGUGCUACACAUCGUAUGUACCGAAUCGGAAAAAAAGGAAAAAGGAGGAAAGUAUUAUGUUACGCCGUUCGGAUCUGCACUUC | -0.798

Set 3 — technique: protein-binding microarray; form: double-stranded DNA, one strand shown; matrix: in vitro; concentration: 0.8 µM; setting: whole 60-bp probe, no competitor; reading: higher = stronger binding; shared flanks, not repeated: … GTCTTGATTCGCTTGACGCTGCTG
Target: Centromere-binding protein 1, full length, N-terminal tag (CBF1, Saccharomyces cerevisiae, UniProt P17106, residues 1-351)
UniProt P17106, sequence (whole entry, looked up): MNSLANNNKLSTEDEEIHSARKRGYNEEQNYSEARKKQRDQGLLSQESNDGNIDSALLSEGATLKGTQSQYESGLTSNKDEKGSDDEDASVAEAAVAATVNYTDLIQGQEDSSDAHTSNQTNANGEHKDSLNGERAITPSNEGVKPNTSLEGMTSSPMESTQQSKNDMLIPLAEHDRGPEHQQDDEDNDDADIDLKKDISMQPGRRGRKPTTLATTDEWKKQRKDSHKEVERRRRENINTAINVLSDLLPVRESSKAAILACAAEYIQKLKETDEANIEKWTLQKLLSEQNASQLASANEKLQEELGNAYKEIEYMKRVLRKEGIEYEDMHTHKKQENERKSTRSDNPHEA
Sequence | fluorescence intensity [a.u.]
CCTAACTACTATAGTCAGCGGAGATAGCTTCGTACA | 490
CTAATCTTTATTGATAACGTGGACGTGTTATTATTC | 919
GAAAGAACTATAAACACGGTGACGAAAAAGAATTAG | 537
CTAAATAAGTAACATCATGTGTCATTTTGCACGTTC | 931
GAAAGTTCTCTGTGGCACGTCGTGAAAGAATGCTAG | 532
CTATATATATATATGTGCGTGCGTGTGTGTGTGTTC | 1060
GAAAAGTATTTTCATATGATGATGCTGACTTAATAG | 596
GAAACATTACAATCTCTGATGCTTTCACGTAGATAG | 554
GAAAGTTAAGGTATAGGCGTGATGCCATGGGAGTAG | 616
GAATGAGCGAACTCAGCTGTCACCGTTTCGGGATAG | 493
TGTACGAAGCTATTCCTCGTGCTTATAGTAGTTAGG | 624
CTAGTGATTTAATGATTCGTGACTATTTCTTTGTTC | 704
GAAAGCCACTACTATCACGTGCCATTACCATTTTAG | 9730
GAATAAAAAATGCATCACGACTCGTTTAGACAATAG | 643
GAACTGTCAAGGTTCCTCGTGACTTTGACGAATTAG | 1840
CCTAACTACTATAACCATGTGACATAGCTTCGTACA | 3020
CTAAAAGAAGTATATCACGCTACAAAAATTCATTTC | 804
GAAAGGTTGATGAATCTGGTGATGCAGGGGTATTAG | 543
CTAAGCGAGTCAGAGCACATGTTTAGACAATATTTC | 808

Set 4 — technique: universal PBM; form: double-stranded DNA, one strand shown; matrix: in vitro; concentration: not given; reading: higher = stronger binding
Target: Sal-like protein 4, full length isoform B (SALL4, Homo sapiens, UniProt Q9UJQ4-2, residues 1-616)
Setting: 8-mer, flanks averaged, mean of replicates
Sequence | E-score
CGTTCAAA | -0.022
CGGCGAAG | -0.255
AGCCCTGA | -0.226
AAGACGCT | -0.0708
CCCAGGAG | -0.349
AACTCTAA | 0.201
AACGATAA | 0.167
TAGCCAGA | -0.00456
AGTTTTTG | 0.264
GCACTCGA | -0.169
CAGGCCAG | -0.288
AGGGAAAT | 0.0566
GCTCGCCA | -0.26
AGCCTCAA | -0.18
GTCCGTTA | -0.0918
CGCGCGAG | -0.245
ACAAGGAC | -0.179
ACCTCTGC | -0.12
AAAGTTCT | 0.111

Some of these lines once more (set 1):
Sequence | E-score
GTACGTAC | -0.11
AACTTGTC | -0.107
AGCTCACG | -0.077
CAATTGGA | -0.00171
ATCTACTG | -0.0302
ACCGCAGA | -0.0601
